Experimental data from different studies.
Every numbered part comes from another study and shows a few of its results, in no order. Positions count from the first letter of the parent shown.

Block 1 — method: protein-binding microarray; molecule type: double-stranded DNA, one strand shown; matrix: in vitro; concentration: 250 nM; notes: 60-bp whole probe; with: salmon DNA 0.4 mg/ml; relative to: random background probes; direction: higher = stronger binding; measurement: log fluorescence; all sequences stand within: GCCTAGCAC … GTCTTGATTCGCTTGACGCTGCTG
Target: Interferon regulatory factor 5, full length, phosphomimetic (IRF5, Homo sapiens, UniProt Q13568-2, residues 1-514, K96S/S451D/S453D/S456D/S462D)
GACGGTATCGGACTGGGGATGTGCTAG: 0.912 z-score
GTTGAGTTCTGTTGCAAAGGGTGCTAG: 0.153 z-score
TCAGTAATGCTTCTGTAACTGTGCTAG: 0.14 z-score
TTAGATATCGGTTTTCGATTAGTGCTA: 7.76 z-score
CTTGGGCTCTTCTCTGAAGACGTGCTA: -0.598 z-score
TGAGGTCTCCTACTGCTTTAGTGCTAG: -0.399 z-score
TTAGGTTTCCTTCTCGTTTAGTGCTAG: 1.1 z-score
GACGATTTCAGTTTTGAGACGTGCTAG: 1.48 z-score
CTAGCTTCCATTTTCTGAACGTGCTAG: 0.719 z-score
TTAGGTTTCGGGTATCGGCTAGTGCTA: 8.73 z-score
TCAAGTATTTTTTTCCAACTGTGCTAG: 0.561 z-score
CACGATATCGGGTTTCGAGACGTGCTA: 3.47 z-score
GTAAAATTATTCTGTATATTGTGCTAG: 0.645 z-score
AGCACTCCAGAGGCAGAGGCGTGCTAG: -0.536 z-score
GACGGTATCCTAATCCTGACGTGCTAG: -0.0241 z-score
TTAGGTAACGGACTGGGTTAGTGCTAG: -0.247 z-score
GCCGAACTGGGGTTTCGAGACGTGCTA: 0.918 z-score
GACGCACTGCTTCTCCTGACGTGCTAG: -0.294 z-score
TTAGATTACAGACTGGATTAGTGCTAG: -0.0705 z-score
GTAGATTTCGGGTATCGATTAGTGCTA: 7.44 z-score
GACGGACTGGGTATCGGGACGTGCTAG: 0.171 z-score
TTAGATATCGGTATCGATTAGTGCTAG: 8.83 z-score

Block 2 — target: CCND1, cyclin fold, Cln2 fusion (human); method: yeast growth competition, sequencing; matrix: yeast; notes: weak parent motif; relative to: not given; direction: higher = stronger binding; measurement: normalised enrichment score
Parent: E2F1 docking peptide (human); PPVKRRLDLETDH; partner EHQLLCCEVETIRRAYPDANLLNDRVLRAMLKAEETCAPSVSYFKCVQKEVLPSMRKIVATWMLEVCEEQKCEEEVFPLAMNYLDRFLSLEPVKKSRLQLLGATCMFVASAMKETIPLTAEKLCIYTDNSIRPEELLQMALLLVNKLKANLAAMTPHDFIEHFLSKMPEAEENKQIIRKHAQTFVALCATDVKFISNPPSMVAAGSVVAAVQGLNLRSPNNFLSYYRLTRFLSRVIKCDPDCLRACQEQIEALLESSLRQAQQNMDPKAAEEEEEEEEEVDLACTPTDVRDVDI
PPVKRRLDLENDH [T11N]: 0.46
PGVKRRLDLETDH [P2G]: 0.435
PYVKRRLDLETDH [P2Y]: 0.11
PPVKRRLDLETDF [H13F]: 0.0549
PPVKARLDLETDH [R5A]: 0.307
PPVKLRLDLETDH [R5L]: 0.601
EPVKRRLDLETDH [P1E]: 0.799
PPNKRRLDLETDH [V3N]: 0.252
QPVKRRLDLETDH [P1Q]: 0.458
PPVKWRLDLETDH [R5W]: 0.38
PPSKRRLDLETDH [V3S]: 0.306
PPVKRRLDLETFH [D12F]: 1.17
PPVKRQLDLETDH [R6Q]: 0.243
PPVKRRLDLELDH [T11L]: 1.13
PPVCRRLDLETDH [K4C]: 1.86
PPVERRLDLETDH [K4E]: 0.0149

Block 3 — method: RNA Bind-n-Seq; molecule type: RNA; matrix: in vitro; concentration: 15 pmol; notes: 4-mer, random 30-nt RNA, single round; with: 3 µM DMDA-PatA, 2 mM AMP-PNP; relative to: input library; direction: higher = stronger binding; measurement: 4-mer enrichment
Target: Eukaryotic initiation factor 4A-I (EIF4A1, Homo sapiens, UniProt P60842, residues 1-406, full length assumed)
Sequence of UniProt P60842 (whole entry, looked up): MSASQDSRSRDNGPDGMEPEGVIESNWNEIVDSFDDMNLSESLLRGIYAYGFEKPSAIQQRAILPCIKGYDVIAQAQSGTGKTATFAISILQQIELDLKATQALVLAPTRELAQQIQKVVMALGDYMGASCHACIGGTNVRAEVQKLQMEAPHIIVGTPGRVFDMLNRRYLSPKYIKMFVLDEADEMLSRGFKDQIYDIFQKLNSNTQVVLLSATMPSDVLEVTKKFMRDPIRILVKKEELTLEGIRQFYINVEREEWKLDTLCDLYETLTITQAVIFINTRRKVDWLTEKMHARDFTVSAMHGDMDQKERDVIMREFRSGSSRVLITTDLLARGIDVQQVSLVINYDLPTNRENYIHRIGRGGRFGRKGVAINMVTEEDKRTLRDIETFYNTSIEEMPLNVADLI
CCCG: 0.682 fold
UGGA: 1.19 fold
UAAC: 0.654 fold
UAUU: 1.14 fold
CGAC: 0.577 fold
GCUC: 0.701 fold
CCAA: 0.376 fold
CCGG: 1.2 fold
AGUG: 1.5 fold
CCUC: 0.363 fold
ACAU: 0.664 fold
UGGC: 1.09 fold
AGCU: 0.924 fold
CGUU: 0.977 fold
GCUG: 0.925 fold
ACCA: 0.277 fold
UCCC: 0.53 fold

Block 4 — method: protein-binding microarray; molecule type: double-stranded DNA, one strand shown; matrix: in vitro; concentration: not given; direction: higher = stronger binding; measurement: E-score
Target: Protein C-ets-1 (ETS1, Homo sapiens, UniProt P14921, residues 1-441, K379A, full length assumed)
Notes: k-mer, scored over probes, only values ≥0.25
Target sequence (chain): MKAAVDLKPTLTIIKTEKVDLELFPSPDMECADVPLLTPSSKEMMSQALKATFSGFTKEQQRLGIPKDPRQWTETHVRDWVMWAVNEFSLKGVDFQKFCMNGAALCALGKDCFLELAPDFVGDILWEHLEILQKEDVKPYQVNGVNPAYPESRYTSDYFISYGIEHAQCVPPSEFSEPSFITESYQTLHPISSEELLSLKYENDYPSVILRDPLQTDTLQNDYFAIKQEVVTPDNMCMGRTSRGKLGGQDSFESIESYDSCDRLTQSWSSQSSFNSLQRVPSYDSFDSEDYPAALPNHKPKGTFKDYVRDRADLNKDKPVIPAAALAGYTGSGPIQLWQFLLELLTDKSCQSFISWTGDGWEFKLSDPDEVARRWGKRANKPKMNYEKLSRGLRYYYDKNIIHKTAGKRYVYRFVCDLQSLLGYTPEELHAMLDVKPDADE
GTACTATA: 0.285
ACATATCA: 0.259
ATTACCGA: 0.292
ATAATACA: 0.26
CAGACCGG: 0.413
ATGTTGCG: 0.25
ATAATTAC: 0.287
TGCAGGAA: 0.302
CACACCGG: 0.338
CCGACATA: 0.252
ATAATTAT: 0.26
AAATGGTG: 0.264
CGAATATA: 0.261
CGGCATGC: 0.26
ACACTTGC: 0.289
CGCATGCC: 0.256
ATTATTTC: 0.253
CGTTAGAA: 0.267
CTACGTAC: 0.287
CCGGTGGA: 0.403
CATCCGGA: 0.302
CCGTCGTA: 0.296

Block 5 — method: universal PBM; molecule type: double-stranded DNA, one strand shown; matrix: in vitro; concentration: 600 nM; direction: higher = stronger binding; measurement: E-score
Target: Sal-like protein 4, full length isoform A (SALL4, Homo sapiens, UniProt Q9UJQ4, residues 1-1053)
Sequence of UniProt Q9UJQ4 (whole entry, looked up): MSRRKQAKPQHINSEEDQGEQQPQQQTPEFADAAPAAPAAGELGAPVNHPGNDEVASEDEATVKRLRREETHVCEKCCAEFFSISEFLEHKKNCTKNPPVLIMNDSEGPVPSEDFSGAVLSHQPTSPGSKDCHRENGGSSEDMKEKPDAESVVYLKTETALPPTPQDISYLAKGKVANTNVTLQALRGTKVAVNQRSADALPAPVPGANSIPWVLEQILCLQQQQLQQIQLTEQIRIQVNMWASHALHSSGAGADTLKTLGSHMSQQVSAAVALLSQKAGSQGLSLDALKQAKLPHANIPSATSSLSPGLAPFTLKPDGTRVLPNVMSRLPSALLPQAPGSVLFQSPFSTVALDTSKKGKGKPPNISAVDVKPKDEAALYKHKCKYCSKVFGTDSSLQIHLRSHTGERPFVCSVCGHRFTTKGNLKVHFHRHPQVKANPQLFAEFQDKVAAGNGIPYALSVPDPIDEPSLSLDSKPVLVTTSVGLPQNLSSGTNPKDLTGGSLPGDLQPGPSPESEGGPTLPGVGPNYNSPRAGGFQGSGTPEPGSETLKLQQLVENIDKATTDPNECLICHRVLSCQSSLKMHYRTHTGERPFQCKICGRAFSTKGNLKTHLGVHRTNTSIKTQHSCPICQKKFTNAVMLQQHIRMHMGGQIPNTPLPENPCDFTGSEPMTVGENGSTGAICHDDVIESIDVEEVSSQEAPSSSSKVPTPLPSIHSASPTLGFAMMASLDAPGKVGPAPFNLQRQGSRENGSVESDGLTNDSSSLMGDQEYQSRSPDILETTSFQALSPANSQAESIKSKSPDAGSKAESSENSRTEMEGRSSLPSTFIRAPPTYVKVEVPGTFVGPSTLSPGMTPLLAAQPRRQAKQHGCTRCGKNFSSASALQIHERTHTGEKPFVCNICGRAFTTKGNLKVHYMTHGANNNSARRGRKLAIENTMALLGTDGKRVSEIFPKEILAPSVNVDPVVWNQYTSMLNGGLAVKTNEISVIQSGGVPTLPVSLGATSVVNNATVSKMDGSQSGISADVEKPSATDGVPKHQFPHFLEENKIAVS
Notes: 8-mer, flanks averaged, mean of replicates
AGTTTACA: 0.148
CTATCAGA: -0.0194
CGGCTCGA: -0.294
ATCAGAAT: 0.139
AGTAGACA: 0.0428
CAATAGAC: 0.191
GTCTAGAC: -0.274
AAAACACT: 0.17
CAAAGATG: 0.0901
TAATGCCA: 0.165
ACGCACTC: -0.11
AAACGAAC: 0.106
CGAAAGGA: 0.154
ATTAGCTG: 0.0754
CCGTGTGC: -0.235
AAACGCGG: -0.0066
CGATAGAC: 0.0124
CCTGTAAC: 0.00966
GCCAGAAC: -0.176
TCACGCAA: 0.181
GCCGCACC: -0.295
CCCCTACG: -0.258
CTAGGGAA: 0.00534
TAATGATA: 0.378
GCACCTCA: -0.2

Block 6 — method: RNA Bind-n-Seq; molecule type: RNA; matrix: in vitro; concentration: 365 nM; relative to: no-protein control; direction: higher = stronger binding; measurement: RBNS enrichment (R)
Target: RNA binding protein fox-1 homolog 2, RRM domain, GST-SBP tag (RBFOX2, Homo sapiens, UniProt O43251-10, residues 100-194)
Notes: natural RNA segment, single round, ends assumed
Construct (chain): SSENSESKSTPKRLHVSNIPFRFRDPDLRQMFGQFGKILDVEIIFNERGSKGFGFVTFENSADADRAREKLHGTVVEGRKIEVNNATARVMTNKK
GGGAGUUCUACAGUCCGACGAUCUGCAUUUCCAUUUUUUCCUCUCUUCCAAUUUAUUCUCCAUGUAACAGAGUAGUUUGGUUUUUAAAAUAUCUGGUGAUGUCAUUCUCUUGCUUAGAACACUAGCUUCCUGUUGGAAUUCUCGGGUGCCAA: 0.276
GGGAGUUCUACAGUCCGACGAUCGGAUGUUGGAGUCUGGUGUAGAGACAGGCAGGUUGCAGAAAAGCACAGAUCUUUGCCAGUGGUUGGCCCUGAUUGAAAACCUGUUUGAAACAGACUGUGUAGGAAAAAUCUGGAAUUCUCGGGUGCCAA: 0.526
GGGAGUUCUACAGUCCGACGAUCUACAGUUUGUGAGGACCUUUGCACUUUGCCAUCUGAUGUCGUACCUCGGUUCACUGUUUGUUUUCGAAUGCCUUGUUUUCAUAGAGCCCUAUUCUCUCAGACGGUGGAAUUGGAAUUCUCGGGUGCCAA: 0.742
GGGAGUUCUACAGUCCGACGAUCUUGAAGUAGACUGGAUAAGGGCCAGUAGCGACUUGCGACUAGACUUUAAACUUUGCUCUUUCAGGUGGAGGCUUCGUUUCUGGGAUCCCACUGCACCGCCAUUUCUUCCCUGGAAUUCUCGGGUGCCAA: 0.277
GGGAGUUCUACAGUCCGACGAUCUUGGUAACAGAUAAGAGUCUUUCCACUUCAAUCUUCGAAGGUGGCUACAAAGCACAUGCGCCCAAGUGGGAAUCCAAGGACUUUAGACCUAACAAAGUCUCCGAAACUAGUGGAAUUCUCGGGUGCCAA: 0.4
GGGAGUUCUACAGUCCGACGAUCCGUUCACUUACUGUAUAAUUUAAAAUCAUUUAUGUAGCUGAGACACUUCUGUAUUUCAAUCAUAUCAUGAACAUUUUAUUUUGCUAAAUCUUGUGUCAUGUGUAGGCUGUUGGAAUUCUCGGGUGCCAA: 0.316
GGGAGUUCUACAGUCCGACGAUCAGCUGACUUUGUUGCCUUAUCUUGAAAAGAAUCUAGAUAGGUGCUUUUAACUGGGGUAUUAACUUUUUUAGAAUGACACAGCUGAACAGUGUUAAUAAUAGUGUGUCAAGUGGAAUUCUCGGGUGCCAA: 0.443
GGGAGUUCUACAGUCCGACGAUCGUAUGUUAAUAAUGUAUAAAAUGGCUAUCUUGUAAGCGUGCUGUCCUGGUACUAGUGUAGCGACUUUUUUUCUCCUCUUUCUUCUAGUACAUAUUGAUAGGUAUAACAUAUGGAAUUCUCGGGUGCCAA: 1.08
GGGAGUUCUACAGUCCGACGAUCUUAGAGGCACAACGUACAGAUAUUUCAUUUUAGAAGGUUGUCAUAAAUGCUAUUUUUACUAAACAUGUCGUACCUAUGCAGUAUAUACAUUAAAGGAAAGCUUGCACUGUUGGAAUUCUCGGGUGCCAA: 0.327
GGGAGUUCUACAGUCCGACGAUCGCUGCUGUGAGCAAAUGAACAUAAAUGCUCGCUGGAAAUUUACUAACCAGUUUUUAUAUUGACCUGCAGUGUAAAAAGCACAUUUAAUUAUAAACAAUAUAUUCAAAAUGUGGAAUUCUCGGGUGCCAA: 0.644
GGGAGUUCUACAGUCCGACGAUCCUCUUUGGGACCCUGCUUAGAGUCAAGGGUACCAAUGAGAAGGGCUAGGACAAGGAAUGCUUCUUGAUUCCAUAGCUCUGACUAUAAUGACCCAGGAGAGAGGUGCCCCUUGGAAUUCUCGGGUGCCAA: 0.437
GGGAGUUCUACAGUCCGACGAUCACAUAGUUAUUCAGAUUUAGGACCAGUAAGGAUAGAACUUUCUCUUAUUUAUGAAAAAAAAUGCUAAUAAUUUUGGGGCAGUUUUUUCCUUUAAUUAUUUUUUUCAAUUUUGGAAUUCUCGGGUGCCAA: 1.64

Block 7 — method: protein binding microarray; molecule type: double-stranded DNA, one strand shown; matrix: in vitro; concentration: not given; relative to: not given; direction: higher = stronger binding; measurement: E-score
Target: Histone acetyltransferase KAT6A, winged helix 2, GST fusion (KAT6A, Homo sapiens, UniProt Q92794, residues 85-181)
Notes: 8-mer, flanks averaged, mean of 2 arrays, mostly near background
Target sequence (chain): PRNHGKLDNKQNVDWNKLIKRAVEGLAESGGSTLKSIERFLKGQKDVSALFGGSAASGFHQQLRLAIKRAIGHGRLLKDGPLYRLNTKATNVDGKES
AAACGTAT: -0.139
ACTAGCCA: -0.0703
ACTACTCC: 0.0763
CCATTGAA: -0.0468
AACTAGGG: -0.0566
AGACCAGC: -0.0534
CGGGCTCC: 0.182
GTCACAGA: -0.0196
GAACTGCA: 0.0347
CAGAATAC: -0.166
CCGAATCC: 0.125
CGTTCGTC: 0.0804
AGAACGCG: 0.0918
TCATCGAA: 0.0898
AATGCAGT: -0.0371
AACGTAGG: -0.187

Excerpt of the above (block 7):
AACTAGGG: -0.0566
AGACCAGC: -0.0534
CGGGCTCC: 0.182
GTCACAGA: -0.0196
GAACTGCA: 0.0347
CAGAATAC: -0.166
CCGAATCC: 0.125
CGTTCGTC: 0.0804
AGAACGCG: 0.0918
TCATCGAA: 0.0898
